Results gathered from unrelated publications.
A part holds a random share of what one study measured.

Series 1
Target: Prothrombin, mature alpha-thrombin (F2, Homo sapiens, UniProt P00734)
Technique: aptamer microarray, sandwich
Molecule type: DNA with 2'F-ANA
Medium: in vitro
Concentration: 200 nM
Setting: whole 15-mer aptamer, many near background
With: Cy3 exosite-II aptamer, 400 nM
Direction: higher = stronger binding
Endpoint: mean fluorescence intensity
Oligonucleotide: GGTTGGTGTGGTTGG
2'F-ANA at 2 4 7 8 10 13 15: 79.6 a.u.
2'F-ANA at 2 6 7 8 12 13: 624 a.u.
2'F-ANA at 1 3 8 10 13 14 15: 81.3 a.u.
2'F-ANA at 2 6 7 9 10 12 13 14: 81.5 a.u.
2'F-ANA at 4 6 7 8 11 12 14: 116 a.u.
2'F-ANA at 3 5 6 9 10 14: 47.7 a.u.
2'F-ANA at 1 2 3 6 7 8 9 10 11 13 14: 62.9 a.u.
2'F-ANA at 1 2 3 5 9 10 12 13 15: 52.2 a.u.
2'F-ANA at 1 2 3 9 11 15: 170 a.u.
2'F-ANA at 1 6 8 9 11 12 13 14: 66.2 a.u.
2'F-ANA at 1 2 6 8 12 13 14 15: 68.3 a.u.
2'F-ANA at 1 2 3 4 6 7 8 9 11: 141 a.u.
2'F-ANA at 2 3 6 7 8 9 12 13 14 15: 340 a.u.

Series 2
Target: TAR DNA-binding protein 43, full length, His tag (TARDBP, Homo sapiens, UniProt Q13148, residues 1-414)
Technique: RNA Bind-n-Seq
Molecule type: RNA
Medium: in vitro
Concentration: 20 nM
Setting: 6-mer, flanks averaged, single round
With: 150 mM LiCl
Baseline: input library
Direction: higher = stronger binding
Endpoint: 6-mer enrichment (R)
GCUAAA: 0.874
AAAUCA: 0.816
UGCACA: 0.926
AUCUUU: 1.03
GUUCUU: 1.02
AACGGA: 0.871
UACUAC: 0.843
UAAACA: 0.822

Series 3
Target: Interferon regulatory factor 5, full length, phosphomimetic (IRF5, Homo sapiens, UniProt Q13568-2, residues 1-514, S451D/S453D/S456D/S462D)
Technique: protein-binding microarray
Molecule type: double-stranded DNA, one strand shown
Medium: in vitro
Concentration: 940 nM top
Setting: 60-bp whole probe
With: salmon DNA 0.4 mg/ml
Baseline: random background probes
Direction: higher = stronger binding
Endpoint: fitted relative affinity
Constant ends, left off below: GCCTAGCAC … GTCTTGATTCGCTTGACGCTGCTG
TTCTCTCCCATTCTGAATTCGTGCTAG: 1.4 z-score
TCCCTTCAACAGTGCTGGCTGTGCTAG: 0.0226 z-score
TCAATTTTCTCTTATTCACTGTGCTAG: 1.81 z-score
TTAGAACTGCGTTTCGATTAGTGCTAG: 2.18 z-score
GACGGACTGGCGTATCGGGACGTGCTA: -0.341 z-score
TTAGGTTTAGGGTATCGGTTAGTGCTA: 2.31 z-score
AAGGAAGGACCATCCAGAGAGTGCTAG: -0.482 z-score
TCACCATCCTGTATGGAACTGTGCTAG: -0.171 z-score
TTAGATCTCAGTCTCGCTTAGTGCTAG: 1.4 z-score
TTAGGTACCGACTATCGGTTAGTGCTA: 0.265 z-score
TTCAGTTTCTCTTTCCTTCTGTGCTAG: 5.91 z-score

Further values, each from its own experiment
PhoQ, residues 284 288 289 292 302 303 ASTSDA
fold induction (PhoP, residues 12 14 15 18 19 NYFTV (Escherichia coli, UniProt P23836); Sort-seq, item: YFP reporter; E. coli; PhoQ-PhoP variant library, with: 10 µM Mg2+; baseline: high Mg2+ state, higher = stronger signaling): 2.57

Some of these lines once more (series 3):
TTAGAACTGCGTTTCGATTAGTGCTAG: 2.18 z-score
GACGGACTGGCGTATCGGGACGTGCTA: -0.341 z-score
TTAGGTTTAGGGTATCGGTTAGTGCTA: 2.31 z-score
AAGGAAGGACCATCCAGAGAGTGCTAG: -0.482 z-score
